Assay results from different studies.
Each numbered part is a random draw from the data of one study; scales do not carry over between parts.

Series 1
Target: PABPC1L2, full length, GST fusion (mouse, UniProt A0ABA7IW68)
Technique: RNAcompete
Form: RNA
Matrix: in vitro
Tested at: 20 nM
Notes: 7-mer, probes averaged, single round
Baseline: mean of 7-mers
Direction: higher = stronger binding
Measurement: 7-mer Z-score
Residues (chain): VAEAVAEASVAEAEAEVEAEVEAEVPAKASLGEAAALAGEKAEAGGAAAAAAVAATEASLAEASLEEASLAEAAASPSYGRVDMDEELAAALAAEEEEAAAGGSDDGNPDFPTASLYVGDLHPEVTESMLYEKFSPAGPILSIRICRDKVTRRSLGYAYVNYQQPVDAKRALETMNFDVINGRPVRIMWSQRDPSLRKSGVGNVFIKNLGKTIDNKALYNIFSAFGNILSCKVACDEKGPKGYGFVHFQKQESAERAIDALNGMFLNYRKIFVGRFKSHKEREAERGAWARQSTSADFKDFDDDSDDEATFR
GUCGGCA: 0.184
CAGACUG: -0.159
GCUGGGU: 0.0334
AGUAGAC: 0.242
CGCCCUA: -0.38
ACGCGGG: 0.233
CAGCACA: -0.0355

Series 2
Target: Interferon regulatory factor 5, full length, phosphomimetic (IRF5, Homo sapiens, UniProt Q13568-2, residues 1-514, S451D/S453D/S456D/S462D)
Technique: protein-binding microarray
Form: double-stranded DNA, one strand shown
Matrix: in vitro
Tested at: 940 nM top
Notes: 60-bp whole probe
With: salmon DNA 0.4 mg/ml
Baseline: random background probes
Direction: higher = stronger binding
Measurement: fitted relative affinity
GCCTAGCACTCACTTTCCCCTTCCTAACTGTGCTAGGTCTTGATTCGCTTGACGCTGCTG: 2.2 z-score
GCCTAGCACGACGGTATCCTACTGGTGACGTGCTAGGTCTTGATTCGCTTGACGCTGCTG: -0.277 z-score
GCCTAGCACAACGGTTTCCTACTGCTGACGTGCTAGGTCTTGATTCGCTTGACGCTGCTG: 1.03 z-score
GCCTAGCACACAAGTTTCTCCTTTGTAAAGTGCTAGGTCTTGATTCGCTTGACGCTGCTG: 3.32 z-score

Series 3
Target: Histone acetyltransferase KAT6A, both winged helices, GST fusion (KAT6A, Homo sapiens, UniProt Q92794, residues 1-181)
Technique: protein binding microarray
Form: double-stranded DNA, one strand shown
Matrix: in vitro
Tested at: not given
Notes: 8-mer, flanks averaged, mean of 2 arrays, mostly near background
Baseline: not given
Direction: higher = stronger binding
Measurement: E-score
Construct (chain): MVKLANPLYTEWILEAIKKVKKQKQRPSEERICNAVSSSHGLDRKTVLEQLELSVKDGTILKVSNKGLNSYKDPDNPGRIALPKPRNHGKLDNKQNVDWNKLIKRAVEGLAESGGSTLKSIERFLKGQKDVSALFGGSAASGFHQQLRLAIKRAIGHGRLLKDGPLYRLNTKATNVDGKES
GTGGCGTA: 0.0162
GCGCTGAA: 0.269
CGAGAGGC: -0.0225
CACTCCCC: 0.038
ACGGCCTA: 0.211

Mixed results
PhoQ, residues 284 288 289 292 302 303 SSLVEF  fold induction (PhoP, residues 12 14 15 18 19 SEGLL (Escherichia coli, UniProt P23836); Sort-seq, item: YFP reporter; E. coli; PhoQ-PhoP variant library, with: 10 µM Mg2+; baseline: high Mg2+ state, higher = stronger signaling): 7.5

Excerpt of the above (series 1):
AGUAGAC: 0.242
GCUGGGU: 0.0334
